Measurements collected from several papers.
Compare with care: the assays were run in different laboratories. Several values in a cell are separate wells, animals, samples, runs or records. ± gives the spread as reported.
Lysophospholipase-like protein 1: Lysophospholipase-like protein 1 (Mus musculus, UniProt Q3UFF7)
GRM4: Metabotropic glutamate receptor 4 (GRM4, Homo sapiens, UniProt Q14833)
RPA1 N-terminal domain: Replication protein A 70 kDa DNA-binding subunit, N-terminal domain (RPA1, Homo sapiens, UniProt P27694)
Grm2: Metabotropic glutamate receptor 2 (Grm2, Rattus norvegicus, UniProt P31421)
GLP1R: Glucagon-like peptide 1 receptor (GLP1R, Homo sapiens, UniProt P43220)
E3 ubiquitin-protein ligase NEDD4: E3 ubiquitin-protein ligase NEDD4 (Homo sapiens, UniProt P46934)
MAPK8: Mitogen-activated protein kinase 8 (MAPK8, Homo sapiens, UniProt P45983)

Protein sequences, listed by entry. Tags and fused reporters are not part of them. Residues count along the entry.
UniProt Q3UFF7, whole entry: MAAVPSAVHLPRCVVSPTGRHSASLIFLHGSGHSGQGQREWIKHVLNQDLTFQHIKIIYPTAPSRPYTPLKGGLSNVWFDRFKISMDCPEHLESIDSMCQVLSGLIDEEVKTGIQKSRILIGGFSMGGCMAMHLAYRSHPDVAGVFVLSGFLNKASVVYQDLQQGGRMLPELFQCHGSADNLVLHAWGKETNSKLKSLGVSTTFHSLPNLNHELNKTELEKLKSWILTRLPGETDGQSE
UniProt Q14833, 33-912 limits assumed: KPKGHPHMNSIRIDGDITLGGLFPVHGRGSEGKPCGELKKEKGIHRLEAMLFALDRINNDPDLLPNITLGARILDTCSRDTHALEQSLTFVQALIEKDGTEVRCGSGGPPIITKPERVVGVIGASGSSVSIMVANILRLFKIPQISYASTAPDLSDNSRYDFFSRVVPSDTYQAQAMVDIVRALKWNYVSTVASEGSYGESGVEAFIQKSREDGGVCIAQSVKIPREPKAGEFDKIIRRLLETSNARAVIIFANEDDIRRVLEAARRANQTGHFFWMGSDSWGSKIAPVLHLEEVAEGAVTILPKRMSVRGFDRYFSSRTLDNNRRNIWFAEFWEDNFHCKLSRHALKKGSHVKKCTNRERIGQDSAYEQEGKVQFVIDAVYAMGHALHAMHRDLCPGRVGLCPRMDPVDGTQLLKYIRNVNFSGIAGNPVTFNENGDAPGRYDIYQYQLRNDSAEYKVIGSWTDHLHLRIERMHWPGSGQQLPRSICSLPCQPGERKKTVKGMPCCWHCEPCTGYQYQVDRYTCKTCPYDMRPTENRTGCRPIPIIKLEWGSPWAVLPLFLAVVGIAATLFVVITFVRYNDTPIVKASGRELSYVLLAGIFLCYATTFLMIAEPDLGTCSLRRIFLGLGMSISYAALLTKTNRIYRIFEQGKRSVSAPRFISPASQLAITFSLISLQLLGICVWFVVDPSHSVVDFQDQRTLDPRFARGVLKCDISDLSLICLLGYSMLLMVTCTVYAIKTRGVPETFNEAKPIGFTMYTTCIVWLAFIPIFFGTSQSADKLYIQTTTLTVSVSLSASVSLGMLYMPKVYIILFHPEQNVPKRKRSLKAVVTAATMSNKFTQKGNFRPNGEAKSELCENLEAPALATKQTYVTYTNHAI
UniProt P46934, whole entry, looked up: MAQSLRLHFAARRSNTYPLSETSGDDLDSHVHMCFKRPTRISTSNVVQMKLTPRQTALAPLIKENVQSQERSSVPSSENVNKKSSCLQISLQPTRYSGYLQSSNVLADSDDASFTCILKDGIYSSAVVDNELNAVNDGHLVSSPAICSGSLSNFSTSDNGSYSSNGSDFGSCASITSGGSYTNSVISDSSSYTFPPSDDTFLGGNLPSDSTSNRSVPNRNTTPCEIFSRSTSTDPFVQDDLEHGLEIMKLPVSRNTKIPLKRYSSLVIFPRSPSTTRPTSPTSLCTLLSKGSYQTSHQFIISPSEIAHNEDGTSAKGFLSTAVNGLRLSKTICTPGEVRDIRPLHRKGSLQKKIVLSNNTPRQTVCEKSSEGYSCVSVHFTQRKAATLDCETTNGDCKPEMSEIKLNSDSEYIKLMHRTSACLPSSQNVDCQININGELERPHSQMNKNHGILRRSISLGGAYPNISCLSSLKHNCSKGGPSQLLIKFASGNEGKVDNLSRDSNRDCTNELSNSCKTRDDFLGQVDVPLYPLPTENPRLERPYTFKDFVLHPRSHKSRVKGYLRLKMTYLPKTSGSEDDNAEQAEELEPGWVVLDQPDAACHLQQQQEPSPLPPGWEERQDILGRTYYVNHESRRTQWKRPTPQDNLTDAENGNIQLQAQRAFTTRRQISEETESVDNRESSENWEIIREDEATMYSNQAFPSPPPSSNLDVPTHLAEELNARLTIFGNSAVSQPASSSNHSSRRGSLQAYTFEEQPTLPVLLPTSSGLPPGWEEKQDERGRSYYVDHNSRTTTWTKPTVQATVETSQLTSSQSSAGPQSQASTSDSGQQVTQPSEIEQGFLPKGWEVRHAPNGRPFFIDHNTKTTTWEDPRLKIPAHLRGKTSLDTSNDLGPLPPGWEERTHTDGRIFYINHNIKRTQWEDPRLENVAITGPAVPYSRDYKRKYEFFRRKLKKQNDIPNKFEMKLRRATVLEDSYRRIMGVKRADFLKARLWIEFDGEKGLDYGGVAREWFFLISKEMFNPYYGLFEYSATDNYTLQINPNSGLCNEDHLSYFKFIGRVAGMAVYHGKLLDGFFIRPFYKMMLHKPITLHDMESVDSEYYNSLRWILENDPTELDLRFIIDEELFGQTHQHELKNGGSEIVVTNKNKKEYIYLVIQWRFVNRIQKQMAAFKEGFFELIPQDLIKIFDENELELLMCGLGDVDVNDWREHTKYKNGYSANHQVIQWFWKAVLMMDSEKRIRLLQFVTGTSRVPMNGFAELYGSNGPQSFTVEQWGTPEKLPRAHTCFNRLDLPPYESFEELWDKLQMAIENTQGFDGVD
UniProt P07900, 1-236 limits assumed: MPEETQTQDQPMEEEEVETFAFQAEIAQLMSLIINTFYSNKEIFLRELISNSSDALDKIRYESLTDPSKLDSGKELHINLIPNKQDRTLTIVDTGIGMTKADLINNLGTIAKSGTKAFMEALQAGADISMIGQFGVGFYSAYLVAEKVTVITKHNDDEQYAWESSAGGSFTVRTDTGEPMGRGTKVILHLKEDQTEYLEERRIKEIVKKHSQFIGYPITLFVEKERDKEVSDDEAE
UniProt P05067, 672-713 limits assumed: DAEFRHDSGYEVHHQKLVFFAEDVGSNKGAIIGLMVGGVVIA
UniProt P05067, whole entry, looked up: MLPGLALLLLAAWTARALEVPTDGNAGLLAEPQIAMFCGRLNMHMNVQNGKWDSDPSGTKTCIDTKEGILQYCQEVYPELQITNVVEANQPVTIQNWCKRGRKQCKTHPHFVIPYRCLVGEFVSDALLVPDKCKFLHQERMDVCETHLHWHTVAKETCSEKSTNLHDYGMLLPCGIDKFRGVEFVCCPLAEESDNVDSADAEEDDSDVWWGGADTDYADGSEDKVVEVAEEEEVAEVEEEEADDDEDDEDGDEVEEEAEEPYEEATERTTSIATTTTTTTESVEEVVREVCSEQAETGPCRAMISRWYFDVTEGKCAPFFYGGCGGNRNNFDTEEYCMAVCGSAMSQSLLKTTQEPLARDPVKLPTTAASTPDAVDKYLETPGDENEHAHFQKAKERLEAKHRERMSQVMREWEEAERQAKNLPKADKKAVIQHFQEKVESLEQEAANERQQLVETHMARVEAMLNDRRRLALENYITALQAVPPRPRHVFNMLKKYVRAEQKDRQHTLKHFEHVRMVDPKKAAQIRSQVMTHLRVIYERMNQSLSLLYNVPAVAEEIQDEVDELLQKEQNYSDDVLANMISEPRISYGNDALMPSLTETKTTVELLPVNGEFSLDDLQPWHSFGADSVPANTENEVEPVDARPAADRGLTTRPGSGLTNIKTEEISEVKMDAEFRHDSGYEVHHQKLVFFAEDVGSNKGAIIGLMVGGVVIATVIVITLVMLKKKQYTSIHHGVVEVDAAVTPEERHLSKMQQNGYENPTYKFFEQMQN
UniProt Q99797, 36-713 limits assumed: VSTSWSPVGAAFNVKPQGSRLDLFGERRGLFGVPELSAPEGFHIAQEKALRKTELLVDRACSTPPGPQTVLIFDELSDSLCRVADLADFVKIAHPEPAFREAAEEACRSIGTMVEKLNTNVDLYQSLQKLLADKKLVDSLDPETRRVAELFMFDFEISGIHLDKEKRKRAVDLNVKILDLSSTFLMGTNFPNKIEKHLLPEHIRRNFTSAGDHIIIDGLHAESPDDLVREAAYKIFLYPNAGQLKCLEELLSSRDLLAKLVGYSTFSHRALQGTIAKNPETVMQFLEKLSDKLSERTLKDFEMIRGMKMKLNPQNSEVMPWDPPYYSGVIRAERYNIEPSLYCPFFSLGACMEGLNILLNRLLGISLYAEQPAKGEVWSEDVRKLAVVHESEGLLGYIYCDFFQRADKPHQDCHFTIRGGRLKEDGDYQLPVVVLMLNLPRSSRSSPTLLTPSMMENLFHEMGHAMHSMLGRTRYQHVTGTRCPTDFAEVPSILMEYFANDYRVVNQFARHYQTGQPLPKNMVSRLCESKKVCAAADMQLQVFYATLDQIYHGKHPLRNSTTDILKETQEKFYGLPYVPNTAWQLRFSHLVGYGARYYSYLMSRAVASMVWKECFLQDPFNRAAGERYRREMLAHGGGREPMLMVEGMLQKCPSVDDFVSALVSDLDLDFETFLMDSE
UniProt P21462, whole entry: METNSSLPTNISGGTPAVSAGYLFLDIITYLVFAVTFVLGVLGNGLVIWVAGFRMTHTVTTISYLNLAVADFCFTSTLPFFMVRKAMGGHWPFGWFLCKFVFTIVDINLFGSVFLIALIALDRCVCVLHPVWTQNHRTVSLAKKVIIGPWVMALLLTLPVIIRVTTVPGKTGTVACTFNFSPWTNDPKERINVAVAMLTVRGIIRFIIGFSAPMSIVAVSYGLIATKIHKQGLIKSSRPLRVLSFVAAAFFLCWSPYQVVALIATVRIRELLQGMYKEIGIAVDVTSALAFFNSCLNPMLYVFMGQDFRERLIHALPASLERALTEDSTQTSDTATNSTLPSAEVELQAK
UniProt P30291, whole entry: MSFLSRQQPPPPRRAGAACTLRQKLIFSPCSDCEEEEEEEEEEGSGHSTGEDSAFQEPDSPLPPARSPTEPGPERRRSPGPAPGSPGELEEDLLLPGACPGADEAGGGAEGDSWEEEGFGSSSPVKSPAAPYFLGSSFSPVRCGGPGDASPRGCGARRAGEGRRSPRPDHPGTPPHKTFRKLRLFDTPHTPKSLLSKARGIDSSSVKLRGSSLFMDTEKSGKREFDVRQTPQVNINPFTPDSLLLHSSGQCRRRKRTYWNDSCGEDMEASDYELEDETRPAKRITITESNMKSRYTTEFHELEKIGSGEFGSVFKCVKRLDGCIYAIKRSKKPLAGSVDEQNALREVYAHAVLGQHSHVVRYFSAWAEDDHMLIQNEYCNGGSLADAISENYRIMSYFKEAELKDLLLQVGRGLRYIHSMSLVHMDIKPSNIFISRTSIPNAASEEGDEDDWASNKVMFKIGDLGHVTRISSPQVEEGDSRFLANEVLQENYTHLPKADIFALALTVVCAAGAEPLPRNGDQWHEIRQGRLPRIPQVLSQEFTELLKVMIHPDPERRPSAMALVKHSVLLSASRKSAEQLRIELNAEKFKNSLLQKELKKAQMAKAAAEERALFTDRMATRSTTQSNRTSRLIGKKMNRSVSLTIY
UniProt P11413, whole entry: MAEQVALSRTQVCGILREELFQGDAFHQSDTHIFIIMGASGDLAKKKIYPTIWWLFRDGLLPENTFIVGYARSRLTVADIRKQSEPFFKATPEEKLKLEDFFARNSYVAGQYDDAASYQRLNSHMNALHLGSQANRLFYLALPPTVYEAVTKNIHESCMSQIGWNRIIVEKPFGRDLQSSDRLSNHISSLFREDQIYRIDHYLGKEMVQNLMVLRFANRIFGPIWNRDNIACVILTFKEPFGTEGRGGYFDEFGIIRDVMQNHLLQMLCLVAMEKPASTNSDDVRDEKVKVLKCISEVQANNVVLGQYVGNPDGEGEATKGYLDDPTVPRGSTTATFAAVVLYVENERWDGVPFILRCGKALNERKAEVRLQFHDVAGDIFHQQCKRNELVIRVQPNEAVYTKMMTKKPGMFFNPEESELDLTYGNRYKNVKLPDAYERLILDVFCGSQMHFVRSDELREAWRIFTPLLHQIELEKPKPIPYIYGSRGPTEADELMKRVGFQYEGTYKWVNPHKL
UniProt P42260, 32-908 limits assumed: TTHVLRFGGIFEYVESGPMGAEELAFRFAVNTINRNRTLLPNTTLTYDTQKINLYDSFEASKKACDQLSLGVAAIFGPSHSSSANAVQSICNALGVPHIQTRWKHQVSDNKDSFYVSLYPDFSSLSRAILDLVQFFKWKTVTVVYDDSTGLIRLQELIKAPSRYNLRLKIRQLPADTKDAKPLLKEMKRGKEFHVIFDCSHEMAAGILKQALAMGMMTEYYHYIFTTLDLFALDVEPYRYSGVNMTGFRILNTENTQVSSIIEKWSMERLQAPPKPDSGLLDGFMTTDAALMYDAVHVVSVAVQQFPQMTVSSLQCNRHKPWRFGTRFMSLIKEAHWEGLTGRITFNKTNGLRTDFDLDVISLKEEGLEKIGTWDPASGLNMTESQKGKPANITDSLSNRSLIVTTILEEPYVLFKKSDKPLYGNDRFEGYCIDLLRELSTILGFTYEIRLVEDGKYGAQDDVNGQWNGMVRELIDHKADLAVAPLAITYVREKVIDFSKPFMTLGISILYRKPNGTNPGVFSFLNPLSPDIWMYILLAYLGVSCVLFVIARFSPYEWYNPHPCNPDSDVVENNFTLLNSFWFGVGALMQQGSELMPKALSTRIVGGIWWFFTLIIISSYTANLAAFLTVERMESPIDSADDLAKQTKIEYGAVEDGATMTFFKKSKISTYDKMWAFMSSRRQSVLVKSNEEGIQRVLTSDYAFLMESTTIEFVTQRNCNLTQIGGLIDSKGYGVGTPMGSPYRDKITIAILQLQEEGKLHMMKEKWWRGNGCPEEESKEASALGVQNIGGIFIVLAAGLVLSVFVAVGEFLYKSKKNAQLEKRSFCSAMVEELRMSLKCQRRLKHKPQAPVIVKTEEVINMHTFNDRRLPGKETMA

`C/C=C/Cn1c(Cc2cc(OC)c(OC)c(OC)c2)nc2c(N)ncnc21` gave a binding stoichiometry of 1.03 ± 0.18 (Heat shock protein HSP 90-alpha, N-terminal domain (HSP90AA1, Homo sapiens, UniProt P07900); isothermal titration calorimetry, one-site model; concentration not given, 298 K, N-terminal domain).
For `Nc1nc(SCc2ccc(Cl)cc2)nn1S(=O)(=O)c1ccc2c(c1)CCC2`, the activation was 49% (Lysophospholipase-like protein 1; activator, gel-based ABPP, FP-rhodamine; HEK293 overexpressing Lysophospholipase-like protein 1; 10 µM).
`COc1ccc(NC(=O)CN2CCCN(S(=O)(=O)c3ccccc3)CC2)c(OC)c1` gave a maximal response of 69.7% (GRM4; calcium mobilization, positive allosteric modulator; CHO cells with Gqi5; with: glutamate; reference: PHCCC maximal response).
Under “potency fold increase”, `CC(=O)N1CCN(c2ccc(Nc3ncc4c(n3)N(C)C(=O)N(c3cc(NC(=O)c5ccc(CN6CCC(N(C)C)C6)c(C(F)(F)F)c5)ccc3C)C4)cn2)CC1` (centres unmarked) is recorded as 21 fold (FGFR4/Transcription factor ETV6 (Homo sapiens, UniProt P22455+P41212, V550E); cell proliferation; Ba/F3 TEL-FGFR4 V550E; reference: GNF-7 GI50 over compound GI50).
`Cc1cccc(NS(=O)(=O)c2cc(C(=O)Nc3ccccc3C(=O)O)ccc2C)c1` has a ligand efficiency of 0.18 (RPA1 N-terminal domain; binding, fluorescence polarisation competition; with: FITC-ATRIP probe).
For `Nc1ncc(-c2ccc3ncnc(N4CCc5cc(F)c(Cl)cc54)c3c2)cn1`, the AUC(0-t) was 117 µg·h/mL (CD1 mouse, brain; intraperitoneal, 50 mg/kg).
The remaining activity of `CSc1ccccc1Nc1c(C(=O)O)ccnc1C(=O)O` is reported as 5% (KDM4E (Homo sapiens, UniProt B2RXH2); inhibitor, FDH-coupled spectrophotometry, refers to: formaldehyde; 200 µM).
For `O=C(NC1CCCCC1)C12CC1/C(=N\O)c1ccccc1O2` (centres unmarked), the response was 73.7 ± 1% (GRM4; positive allosteric modulator, calcium mobilization; CHO expressing Gqi5; concentration not given, with: glutamate EC20; reference: (±)-PHCCC).
The response of `CN(c1cccnc1)c1ccc2c(c1)c(=O)c(C(N)=O)cn2-c1ccc(F)cc1` is reported as -0.65 ± 1.98% (Grm2; calcium mobilization, negative allosteric modulator; 30 µM, with: glutamate 100 µM; reference: glutamate maximum).
`Cc1[nH]c2cc(Cl)cc(Cl)c2c1CCn1cc(CN2CCS(=O)(=O)CC2)nn1` has an Emax of 95.5% (GLP1R; cAMP accumulation, positive allosteric modulator, HTRF; 0.6 µM, crude reaction product, with: GLP-1(9-36) at EC20; reference: BETP).
The maximal response of `COc1ccc(NC(=O)CN2CCCN(S(=O)(=O)c3cccnc3)CC2)c(OC)c1` is reported as 25.6 ± 4.6% (GRM4; calcium mobilization, positive allosteric modulator; CHO cells with Gqi5; with: glutamate; reference: PHCCC maximal response).
The activation of `Nc1nc(SCc2ccc(Cl)cc2)nn1S(=O)(=O)c1cccc2c1CCCC2` is reported as 44% (Lysophospholipase-like protein 1; activator, gel-based ABPP, FP-rhodamine; HEK293 overexpressing Lysophospholipase-like protein 1; 10 µM).
For `O=C(/C=C/c1ccc(O)c(OC(F)(F)F)c1)C(CCCOC1CCCCO1)C(=O)/C=C/c1ccc(O)c(OC(F)(F)F)c1` (centres unmarked), “Aβ band density” read 2440 ± 376% (APP (Homo sapiens, UniProt P05067); SDS-PAGE western blot, refers to: Aβ1-42 species 75-200 kDa; 30 µM, 24 h, 37 °C, with: Aβ 10 µM; reference: DMSO control).
With `Cc1ccc(C(=O)Nc2ccc(F)cc2C(=O)O)cc1S(=O)(=O)Nc1ccc(Cl)c(Cl)c1` the ligand efficiency was 0.21 (RPA1 N-terminal domain; binding, fluorescence polarisation competition; with: FITC-ATRIP probe).
`CCOC(=O)/C=C/CNCCCCN1c2ccccc2CCc2ccc(Cl)cc21` — result for “ubiquitination TR-FRET signal AUC”: 147000 a.u. and 96900 a.u. and 91700 a.u. and 146000 a.u. and 90900 a.u. and 143000 a.u. (E3 ubiquitin-protein ligase NEDD4; inhibitor, Ub-TR-FRET; 0.01524 µM, 1 h preincubation, HECT domain, with: ATP 2 mM; higher = more ubiquitination).
With `COc1ccc2[nH]cc(/C=C/c3c[nH]c4ccccc34)c2c1` the inhibition was 39% (Amyloid-beta precursor protein, Aβ1-40 (APP, Homo sapiens, UniProt P05067); Aβ40 aggregation, thioflavin T fluorescence; 25 µM).
`CCc1ccc(-c2nc(Nc3nc4ccccc4o3)ncc2C#N)cc1` has a maximal response of 2.8 ± 0.5% (Grm5 (Rattus norvegicus, UniProt P31424); calcium mobilization, negative allosteric modulator; with: glutamate EC80; reference: glutamate maximum).
The apparent kcat/Km of `CSCC[C@H](NC(=O)c1ccccc1N)C(=O)N[C@H](C(=O)N[C@@H](C)C(=O)N[C@@H](C)C(=O)N[C@@H](CC(C)C)C(=O)N[C@@H](CCCCN)C(=O)N[C@H](C(=O)N[C@@H](CCCCNc1ccc([N+](=O)[O-])cc1[N+](=O)[O-])C(N)=O)[C@@H](C)O)[C@@H](C)O` is reported as 45000 M⁻¹ s⁻¹ (Mitochondrial intermediate peptidase (MIPEP, Homo sapiens, UniProt Q99797); substrate, FRET peptide hydrolysis; multiple cleavage sites).
For `CCC1NC(=O)C(CCCNC(=N)N)NC(=O)C(C)(NC(=O)C(C)C)CCCCNC(=O)C(c2ccccc2)NC1=O` (centres unmarked), MLL3-RbBP5 binding read “no effect” (WD repeat-containing protein 5, with MLL3, RbBP5 (WDR5, Homo sapiens, UniProt P61964); GST pull-down; HeLa nuclear extract; up to 25 µM, with: 10 µM GST-MLL3).
For `COCCOCCOCCOC(=O)C(C#N)=Cc1ccc(N(C)C)cc1OC`, the fluorescence intensity was 1.3 fold (Amyloid-beta precursor protein, aggregated Aβ42 (APP, Homo sapiens, UniProt P05067); fluorescence after Aβ binding, fluorescence spectroscopy; PBS; 4 µM, with: aggregated Aβ(1-42) 5 µM; reference: before mixing with Aβ).
`O=C(OC(C(F)(F)F)C(F)(F)F)N1CCc2ccc(Br)cc2C1`: activity “inactive” (FAAH (Homo sapiens, UniProt O00519); enzyme activity, inhibitor, fluorescence AAMCA substrate; 1 µM).
With `Cc1cc(NC(=O)c2cccc(NC(=O)C3=CC(C)(C)CC3=O)c2)ccc1Nc1nccc(-c2cccnc2)n1` the remaining activity was 0.78 (MAPK8; kinase activity, inhibitor; 0.06097 µM, unit not given, with: 10 mM GSH; reference: DMSO).
Under antagonist activity, `COc1ccc(C(=O)C2=C(O)C(=O)N(CCN(C)C)C2c2cc(OC)ccc2OC)cc1` (centres unmarked) is recorded as “inactive” (FPR1 (Homo sapiens, UniProt P21462); fMLF-induced calcium mobilization, antagonist; HL-60 expressing FPR1; concentration not given).
`O=C1CCC(N2Cc3cc(-c4nc5ccccn5c4Nc4ccc5c(c4)OCCO5)ccc3C2=O)C(=O)N1` (centres unmarked) gave a Dmax of 63% (WEE1/CRBN (Homo sapiens, UniProt P30291+Q96SW2); degrader, HiBiT; Jurkat; 5 h).
Under “ubiquitination TR-FRET signal AUC”, `CCOC(=O)/C=C/CNCCCN1c2ccccc2CCc2ccc([N+](=O)[O-])cc21` is recorded as 28100 a.u. and 24100 a.u. and 23100 a.u. (E3 ubiquitin-protein ligase NEDD4; inhibitor, Ub-TR-FRET; 100 µM, 1 h preincubation, HECT domain, with: ATP 2 mM; higher = more ubiquitination).
`COc1cc([C@@H]2c3cc4c(cc3[C@H](C=C(C)C)[C@H]3COC(=O)[C@H]23)OCO4)cc(OC)c1OC` has an EC50 of 7.4 ± 0.4 µM (Leishmania infantum; iRFP fluorescence; mouse splenocytes infected, amastigote, iRFP, ex vivo splenic explant; 48 h).
`CCOC(=O)/C=C/CNCCCN1c2ccccc2CCc2ccccc21`: “ubiquitination TR-FRET signal AUC” 78500 a.u. and 83500 a.u. and 78900 a.u. (E3 ubiquitin-protein ligase NEDD4; inhibitor, Ub-TR-FRET; 11.11 µM, 1 h preincubation, HECT domain, with: ATP 2 mM; higher = more ubiquitination).
For `COc1cc([C@@H]2c3cc4c(cc3[C@@H](OC(C)C)[C@H]3COC(=O)[C@H]23)OCO4)cc(OC)c1OC`, the selectivity index was 0.5 (Leishmania; mouse splenocytes; reference: CC50 over amastigote EC50).
Under mRNA level, `Cc1ncsc1-c1ccc([C@H](C)NC(=O)[C@@H]2C[C@@H](O)CN2C(=O)[C@@H](NC(=O)CCCCCCC(=O)N2CCN(C[C@]3(C)CCC(c4ccc(Cl)cc4)=C(CN4CCN(c5ccc(C(=O)NS(=O)(=O)c6ccc(N[C@H](CCN7CCOCC7)CSc7ccccc7)c(S(=O)(=O)C(F)(F)F)c6)cc5)CC4)C3)CC2)C(C)(C)C)cc1` is recorded as “decreased” (refers to: Cdkn2a; naturally aged mice, spleen; intraperitoneal, 5 mg/kg every 3 days).
With `c1ccc2c(CCNCCSSCCNCCc3c[nH]c4ccccc34)c[nH]c2c1` the activity increase was 20% (G6PD (Homo sapiens, UniProt P11413); activator; concentration not given, wild type enzyme).
The remaining activity of `COC(=O)[C@@]1(C)C=C(C(=O)Nc2cccc(C(=O)NC34CC(Nc5nccc(-c6cccnc6)n5)(C3)C4)c2)C(=O)CC1` is reported as 0.0419 (MAPK8; kinase activity, inhibitor; 4.938 µM, unit not given, with: 10 mM GSH; reference: DMSO).
`CN(Cc1ccncc1)c1ccc2c(c1)c(=O)c(C(N)=O)cn2-c1ccc(F)cc1` gave a response of 1.76 ± 0.74% (Grm2; calcium mobilization, negative allosteric modulator; 30 µM, with: glutamate 100 µM; reference: glutamate maximum).
The specific binding of `O=C(O)c1cc(C(=O)N[C@@H](CS)C(=O)O)cc([C@H]2CCN[C@@H]2C(=O)O)c1` is reported as 88 ± 6% (Grik2 (Rattus norvegicus, UniProt P42260); radioligand binding; Sf9 membranes; 10 µM, homomeric receptor, with: [3H]kainate).
`CC(=O)NCCCC[C@H](NC(C)=O)C(=O)Nc1ccc2c(C)cc(=O)oc2c1` gave a kcat/KM of 16.3 ± 1.5 M⁻¹ s⁻¹ (HDAC8 (Homo sapiens, UniProt Q9BY41); deacetylation, substrate; 25 °C, with: 150 nM enzyme).
For `Cc1[nH]c2cc(Cl)cc(Cl)c2c1CCn1cc(C2(O)COC2)nn1`, the Emax was 118 ± 5% (GLP1R; cAMP accumulation, positive allosteric modulator, HTRF; 0.6 µM, purified compound, with: GLP-1(9-36) at EC20; reference: BETP).

For quick reference, copied from above:
`CCOC(=O)/C=C/CNCCCN1c2ccccc2CCc2ccccc21`: “ubiquitination TR-FRET signal AUC” 78500 a.u. and 83500 a.u. and 78900 a.u. (E3 ubiquitin-protein ligase NEDD4; inhibitor, Ub-TR-FRET; 11.11 µM, 1 h preincubation, HECT domain, with: ATP 2 mM; higher = more ubiquitination).
For `COc1cc([C@@H]2c3cc4c(cc3[C@@H](OC(C)C)[C@H]3COC(=O)[C@H]23)OCO4)cc(OC)c1OC`, the selectivity index was 0.5 (Leishmania; mouse splenocytes; reference: CC50 over amastigote EC50).
Under mRNA level, `Cc1ncsc1-c1ccc([C@H](C)NC(=O)[C@@H]2C[C@@H](O)CN2C(=O)[C@@H](NC(=O)CCCCCCC(=O)N2CCN(C[C@]3(C)CCC(c4ccc(Cl)cc4)=C(CN4CCN(c5ccc(C(=O)NS(=O)(=O)c6ccc(N[C@H](CCN7CCOCC7)CSc7ccccc7)c(S(=O)(=O)C(F)(F)F)c6)cc5)CC4)C3)CC2)C(C)(C)C)cc1` is recorded as “decreased” (refers to: Cdkn2a; naturally aged mice, spleen; intraperitoneal, 5 mg/kg every 3 days).
With `c1ccc2c(CCNCCSSCCNCCc3c[nH]c4ccccc34)c[nH]c2c1` the activity increase was 20% (G6PD (Homo sapiens, UniProt P11413); activator; concentration not given, wild type enzyme).
The remaining activity of `COC(=O)[C@@]1(C)C=C(C(=O)Nc2cccc(C(=O)NC34CC(Nc5nccc(-c6cccnc6)n5)(C3)C4)c2)C(=O)CC1` is reported as 0.0419 (MAPK8; kinase activity, inhibitor; 4.938 µM, unit not given, with: 10 mM GSH; reference: DMSO).
